Results of several laboratories.
± marks the error that the study gave.

For `O=C1C(=NN=c2[nH]ccs2)c2cc(Cl)ccc2N1CCn1ncc2c(=O)[nH]cnc21`, the IC50 was 2.27 µg/mL (A498; cell growth or viability, SRB; 72 h).
With `C[n+]1nn(CCCCCCCCN2C(=O)C=CC2=O)cc1COCCCCCCCCN1C(=O)C=CC1=O` the IC50 was 34600 nM (L929; cell growth or viability; 72 h).
With `O=C1C=C(O)C(=O)c2ccccc21` the IC50 was 276000 nM (HuCC-A1; cell growth or viability, MTT).
With `CNS(=O)(=O)Nc1nccc(Cc2c(C)c3ccc(Oc4ncccc4F)cc3oc2=O)c1F` the IC50 was 757 nM (HCC1954; cell viability; 7 days).
With `C=C(C)C(=O)NCCCCCCCCCCOCc1cn(CCCCCCCCCCNC(=O)C(=C)C)nn1` the IC50 was over 50000 nM (L929; viability, alamarBlue; 3 days).
The IC50 of `C[C@@H](c1ccccc1)N1C(=O)C2=Nc3ccccc3CN2C1=S` is reported as 460 ± 10 nM (CEM/ADR5000 (P-gp overexpressing, multidrug resistant); cell viability, resazurin; 72 h).
For `COC(=O)N1c2ccc3c(nc(Cc4ccccc4)n3[C@@H]3CCC[C@@H](C(=O)O)C3)c2CC[C@@H]1C`, the IC50 was 40 nM (DU-4475; cell growth or viability, ATP luminescence; 10 days).
`NC(=O)c1ccc(-c2ccccc2Cl)c2c3c([nH]c12)CC[C@@H](N)C3` gave an IC50 of 1.47 nM (RBE; cell growth or viability).
With `CCOc1cncc(-c2ccc(NC(=O)C3(c4ccnc(NS(=O)(=O)C5CC5)n4)CCOCC3)nc2)n1` the IC50 was 545 nM (A498; cell proliferation, CellTiter-Glo; 72 h, renal cancer).
The IC50 of `O=C(NCc1cc(F)cc(F)c1)[C@@]1(O)CCN(c2ccc3[nH]ccc3c2)C1=O` is reported as 160 nM (LXFA526 lung adenocarcinoma; colony formation, soft agar clonogenic).
For `CC(C)=CC1OC(C)(C)C2C=C3C(=O)C(Cl)=CC(O)C3C3C(O)C4OC4C(=O)C132` (stereo not drawn), the IC50 was 8110 nM (BT-474; cell growth or viability, MTS).
For `O=C1C=CC(=O)N1CCCCCCCCOCc1cn(CCCCCCCCN2C(=O)C=CC2=O)nn1`, the IC50 was 6000 nM (L929; cell growth or viability; 72 h).
For `O=C1CCC(N2C(=O)c3ccc(N4CCC(C(=O)N5CCC(CCN6CCC(CNC(=O)c7cccc(-c8noc(C(F)(F)F)n8)c7)(c7nc(-c8ccccc8)cs7)CC6)CC5)CC4)cc3C2=O)C(=O)N1` (stereo not drawn), the IC50 was 1960 nM (OCI-Ly10; cell growth or viability, CCK-8; 7 days).
`C[C@@H](c1cccc2ccccc12)N1C(=O)C2=Nc3ccccc3CN2C1=S` gave an IC50 of 322 ± 93 nM (CEM/ADR5000 (P-gp overexpressing, multidrug resistant); cell viability, resazurin; 72 h).
For `CC(C)c1ccc(N(C)c2ccc3c(c2)OCC[C@H]3CNc2cnccc2C(=O)O)cc1`, the IC50 was at least 10000 nM (DMS-153; cell growth or viability, ATP luminescence; 7 days).

Some of these lines once more:
For `CC(C)c1ccc(N(C)c2ccc3c(c2)OCC[C@H]3CNc2cnccc2C(=O)O)cc1`, the IC50 was at least 10000 nM (DMS-153; cell growth or viability, ATP luminescence; 7 days).
With `CCOc1cncc(-c2ccc(NC(=O)C3(c4ccnc(NS(=O)(=O)C5CC5)n4)CCOCC3)nc2)n1` the IC50 was 545 nM (A498; cell proliferation, CellTiter-Glo; 72 h, renal cancer).
